Assay results collected from several papers.
Protocols differ between the studies behind these lines. Several values in a cell are separate wells, animals, samples, runs or records. Numbers after ± are the reported error.

| Structure (SMILES) | tested on | assay | test system | conditions | how to read | endpoint | result |
| --- | --- | --- | --- | --- | --- | --- | --- |
| Cc1cc(Nc2ccc(NC(=O)c3ccc(Nc4ccnc5ccccc45)cc3)cc2)nc(N)n1 | HBL-1 | – | – | 0.1 µM, 120 h | – | viability | 83.2% |
| CC(C)C[C@@H](C=O)NC(=O)[C@H](CC(C)C)NC(=O)[C@H](CC(C)C)NC(=O)OCc1ccccc1 | HeLa expressing Ub(G76V)-GFP | Ub(G76V)-GFP degradation, cycloheximide chase | – | 2.5 µM | reference: DMSO | remaining activity | 8.6% |
| O=C(/C=C/C=C/C=C/C1CCCCC1)NC1=C[C@@](O)(/C=C/C=C/C=C/C(=O)NC2=C(O)CCC2=O)[C@@H]2O[C@@H]2C1=O | kp3 | cell growth, inhibitor, CellTiter-Glo luminescence | – | 78 h | reference: day 0 cell count | GI50 | 20300 nM |
| O=C(NC(=O)c1ccccc1O)c1ccccc1O | Plasmodium yoelii | – | 17XL | 384-well | – | IC50 | 141 ± 7 nM |
| CCn1cc(-c2cc(Cn3ccnc3)cc3c2CCN([C@H](c2cc(OC)ccn2)C2CC2)C3=O)c(C(F)(F)F)n1 | SNU-886 | cell growth, inhibitor | – | 120 h | – | EC50 | 6970 nM |
| Cc1[nH]c(C)c(-c2ccc(-c3cccc(C(F)(F)F)c3)nc2)c(=O)c1Br | Plasmodium yoelii | – | 17XL | 384-well | – | IC50 | 156 ± 63 nM |
| COc1ccc2cc1Oc1ccc(cc1)C[C@H]1c3cc(c(OC)cc3CCN1C)Oc1c(O)c(OC)cc3c1[C@H](C2)N(C)CC3 | BT-12 | cell viability, MTT | – | 10 µM, 72 h | – | inhibition | 93.5% |
| COc1ccc(OC)c(-c2nc3ccc(-c4nc5ccc(N6CCN(C)CC6)cc5[nH]4)cc3[nH]2)c1 | Hs-578T | SRB | – | 10 µM, 48 h | – | growth percent | 85.5% |
| Oc1ccc(/C=C/c2cc(O)cc(O)c2)cc1 | HBL-1 | – | – | 0.1 µM, 120 h | – | viability | 114% |
| Cl.O=C(Nc1ccccc1-c1cn2c(CN3CCNCC3)csc2n1)c1cnc2ccccc2n1 | BT-12 | cell viability, MTT | – | 10 µM, 72 h | – | inhibition | 94.4% |
| C[C@@H](N)[C@H]1CC[C@H](C(=O)Nc2ccncc2)CC1 | HeLa expressing Ub(G76V)-GFP | Ub(G76V)-GFP degradation, cycloheximide chase | – | 12 µM | – | inhibition | 24% |
| CCn1cc(-c2cc(Cn3ccoc3=N)cc3c2CCN([C@@H](C)c2cc(OC)ccn2)C3=O)c(C(F)(F)F)n1 | KYSE-70 | cell growth, inhibitor | – | 120 h | – | EC50 | 650 nM |
| CO[C@H]1[C@H](O[C@H]([C@H]2O[C@@H](n3ccc(=O)[nH]c3=O)[C@H](O)[C@@H]2O)[C@H](NCCCNC(=O)[C@@H](NC(=O)[C@@H](NC(=O)N[C@H](C(=O)O)C(C)C)[C@@H]2CCN=C(N)N2)[C@@H](OC(=O)CCCCCCCCCCCCN(O)C(=N)N)C(C)C)C(=O)O)O[C@H](CN)[C@H]1O | MDA-MB-231 | – | mitochondrial membrane | 0.25 µM | – | cardiolipin level | decreased |
| CC[S+]([O-])c1nc(-c2cccc(OCc3ccccc3)c2)cc(C(F)(F)F)n1 (stereo not drawn) | HeLa Kyoto | RelA nuclear import, high content imaging | – | 1.58 µM, 3 h, with: 1 µM PMA, 60 min | – | cells with nuclear RelA | 90.1% and 86.8% |
| Cc1cc(Nc2ncc(Cl)c(Nc3ccccc3S(=O)(=O)C(C)C)n2)c(OC(C)C)cc1C1CCNCC1 | CLB-BAR | phosphoproteomics LC-MS/MS, refers to: PDCD4 phosphorylation | – | 200 nM, 60 min | reference: untreated | log2 fold change | -3.62 |
| N[C@@H](CCC(=O)O)C(=O)O | hiPSC glutamatergic neurons | network burst frequency, multi-electrode array | – | 2 h | – | lowest effective concentration | 1 µM |
| COc1cnc2cccc(N3CCc4c(cc(Cn5ccnc5C)cc4-c4cn(C)nc4C(F)(F)F)C3=O)c2c1 | LK-2 | cell growth, inhibitor | – | 120 h | – | EC50 | > 30000 nM |

| Structure (SMILES) | tested on | assay | test system | conditions | how to read | endpoint | result |
| --- | --- | --- | --- | --- | --- | --- | --- |
| Cn1cc(-c2ccc(-c3cncc(Cl)c3N3CCC4(CCNC4=O)CC3)cc2)cn1 | COLO 205 | gene expression, microarray, refers to: TRAF1 mRNA | – | concentration not given, 6 h | reference: untreated cells | log2 fold change | 2.2 |
| O=C(CCCCCN1C(=O)c2cccc3cccc(c23)C1=O)NO | HBL-1 | – | – | 0.1 µM, 120 h | – | viability | 138% |
| Oc1ccccc1-c1n[nH]cc1-c1ccnc2ccccc12 | KIC1 (Candida albicans) | kinase binding, MIB/MS competition | Candida albicans lysate | 1 µM | reference: DMSO | log2 fold change | -0.13 |
| CC(C)[C@H](NC(=O)c1cc(Cl)ccc1OCCNC(=O)OC(C)(C)C)C(=O)Nc1ccc([N+](=O)[O-])cc1Cl | MDA-MB-231 | Western blot | – | 1, 5, 10 µM, 48 h | – | Bcl-2 level | decreased |
| CCS(=O)(=O)Nc1ccc2c(c1)/C(=C(/Nc1ccc(CN3CCCCC3)cc1)c1ccccc1)C(=O)N2 | BT-12 | cell viability, MTT | – | 10 µM, 72 h | – | inhibition | 93.6% |
| O=C(/C=C/N1C[C@H]2C[C@@H]1CN2c1ccccn1)c1ccccc1O | HBL-1 | – | – | 0.5 µM, 120 h | – | viability | 70.3% |
| O=c1cc(N2CCOCC2)oc2c1ccc1ccccc12 | HeLa expressing Ub(G76V)-GFP | Ub(G76V)-GFP degradation, inhibitor, cycloheximide chase | – | 12 µM | – | inhibition | 21% |
| Nc1cc(F)ccc1NC(=O)/C=C/c1cnn(C/C=C/c2ccccc2)c1 | HBL-1 | – | – | 0.5 µM, 120 h | – | viability | 108% |
| CC/C(=N\NC(=O)NCc1cccc(O)c1)c1ccc(O)c(C)c1O | SK-OV-3 | gene expression, microarray, refers to: TGFB2 | – | 10 µM, 24 h | reference: DMSO | log ratio | 3.83 |
| c1coc(-c2n[nH]cc2-c2ccnc3ccccc23)c1 | FPK1 (Candida albicans) | kinase binding, MIB/MS competition | Candida albicans lysate | 10 µM | reference: DMSO | log2 fold change | -0.07 |
| Clc1ccc(-c2csc(NN=C3CCCC3)n2)cc1 | HBL-1 | – | – | 0.1 µM, 120 h | – | viability | 103% |
| Cn1c(Nc2nc3ccc(C(F)(F)F)cc3s2)nc2cc(C(=O)NCCOCCO)ccc21 | SH-SY5Y | RNA-seq, refers to: PLAT mRNA | – | 5 µM, 5 h | reference: untreated cells | fold change | 3.19 |
| O=C(/C=C/C#Cc1cccc(NS(=O)(=O)c2ccccc2)c1)NO | HBL-1 | – | – | 0.5 µM, 120 h | – | viability | 24.7% |
| O=C(C[C@@H](C(F)F)n1ccc(F)n1)N1CCC(O)(Cn2cnc3c(cnn3-c3ccc(F)cc3)c2=O)CC1 | LNCaP | cell viability, CCK-8 | – | mean of 3 runs | – | IC50 | 29.8 nM |
| O=c1ncccn1[C@@H]1O[C@H](CO)[C@@H](O)[C@H]1O | HBL-1 | – | – | 0.5 µM, 120 h | – | viability | 111% |
| COc1ccc(Cl)cc1NC(=O)Nc1cc(C)nc2ccccc12 | HeLa expressing Ub(G76V)-GFP | Ub(G76V)-GFP degradation, inhibitor, cycloheximide chase | – | 12 µM | – | inhibition | 53% |

For quick reference, copied from above:
| Structure (SMILES) | tested on | assay | test system | conditions | how to read | endpoint | result |
| --- | --- | --- | --- | --- | --- | --- | --- |
| Cc1[nH]c(C)c(-c2ccc(-c3cccc(C(F)(F)F)c3)nc2)c(=O)c1Br | Plasmodium yoelii | – | 17XL | 384-well | – | IC50 | 156 ± 63 nM |
| Cc1cc(Nc2ncc(Cl)c(Nc3ccccc3S(=O)(=O)C(C)C)n2)c(OC(C)C)cc1C1CCNCC1 | CLB-BAR | phosphoproteomics LC-MS/MS, refers to: PDCD4 phosphorylation | – | 200 nM, 60 min | reference: untreated | log2 fold change | -3.62 |
| N[C@@H](CCC(=O)O)C(=O)O | hiPSC glutamatergic neurons | network burst frequency, multi-electrode array | – | 2 h | – | lowest effective concentration | 1 µM |
| COc1ccc2cc1Oc1ccc(cc1)C[C@H]1c3cc(c(OC)cc3CCN1C)Oc1c(O)c(OC)cc3c1[C@H](C2)N(C)CC3 | BT-12 | cell viability, MTT | – | 10 µM, 72 h | – | inhibition | 93.5% |
